Measurements collected from several papers.
Several values in a cell are separate wells, animals, samples, runs or records. ± marks the error that the study gave.

SMILES | test | system | conditions | scale | endpoint | result
COC(=O)CN1CCN(CC(=O)OC)CCN(Cc2cc(-c3nc4ccccc4s3)cc(OC)c2O)CC1 | – | octanol/water | 64Cu complex | – | log D | 0.72 ± 0.02
COc1cc(OC)cc(C2=C3C(C)=C(I)C(C)=[N+]3[B-](F)(F)n3c(/C=C/c4c[nH]c5ccccc45)c(I)c(C)c32)c1 | – | dichloromethane | – | – | log molar absorptivity | 4.64 M⁻¹ cm⁻¹
O=C(O)CN(CCNC(=O)c1cccc(C(=O)NCCN(CC(=O)O)CC(=O)O)n1)CC(=O)O | potentiometric titration | water, 0.1 M KNO3 | 25.0 °C, complex species LPb(OH), together with: Pb(NO3)2 | – | log β (Pb2+ complex stability) | 16.7
OCC1OC(n2cnc3c(NCC(c4ccccc4)c4ccccc4)ncnc32)C(O)C1O (stereo not shown) | IAM chromatography | – | pH 7.4 | – | log kIAM | 2.31
NC(=O)CN1CCNC(=O)c2cccc(n2)C(=O)NCCN(CC(N)=O)CCN(CC(N)=O)CC1 | potentiometric titration | – | 25.0 °C, 0.1 M KNO3 ionic strength | – | log β Pb(II) complex LPb(OH)2 | 19.3
FC(F)(F)c1ccnc(-c2cc(C(F)(F)F)ccn2)c1.FC(F)(F)c1ccnc(-c2cc(C(F)(F)F)ccn2)c1.[Cl-].[Cl-].[Ru+2].c1csc(-c2nc3c4cccnc4c4ncccc4c3[nH]2)c1 | shake-flask | 1-octanol/phosphate buffer | pH 7.4, chloride salt | – | log D octanol/water | negative
COCCOCCOCCOc1ccc(/C=C/C2=[N+]3C(=C(c4cc(OC)cc(OC)c4)c4c(C)c(I)c(/C=C/c5ccc(OCCOCCOCCOC)cc5)n4[B-]3(F)F)C(C)=C2I)cc1 | – | dichloromethane | – | – | log molar absorptivity | 4.75 M⁻¹ cm⁻¹
COc1cc2oc(-c3ccc(F)cc3)cc(=O)c2c(O)c1O | spectrophotometric titration | methanol/water 80/20 w/w | 25.0 °C, ionic strength 0.1 M, 6-OH group | – | log protonation constant | 9.87
CCNC(=O)C1OC(n2cnc3c(NCC(c4ccccc4)c4ccccc4)nc(NCCc4ccc(CCN)cc4)nc32)C(O)C1O (stereo not shown) | IAM chromatography | – | pH 7.4 | – | log kIAM | 3.35
O=C(/C=C/c1ccc(O)c(O)c1)NCCCCCCCC[P+](c1ccccc1)(c1ccccc1)c1ccccc1 | derivative spectrophotometry | brain polar lipid membranes | 37 °C | – | log Kd | 3.64 ± 0.25
Br.Br.Br.O=c1c(O)cccn1CCN1CCN(CCn2cccc(O)c2=O)CCN(CCn2cccc(O)c2=O)CC1 | spectrophotometric titration | – | 25 °C, Ka3, ionic strength 0.10 M | – | log proton dissociation constant | -7.5 ± 0.02
CC(C)CC(=O)C(=O)C(O)CO (stereo not shown) | – | – | – | – | log membrane partition coefficient | 1.91
COc1cc(/C=N/N2C(=O)c3ccccc3NC2c2ccc(O)c(OC)c2)ccc1O (stereo not shown) | RP-HPLC | – | – | – | log k | -0.55
CCCCCCCC(=O)C(=O)C(O)CO (stereo not shown) | – | – | – | – | log membrane partition coefficient | 3.55
CCNC(=O)C1OC(n2cnc3c(NC(CC)CC)nc(NCCNC(=O)Nc4cc[n+](C)cc4)nc32)C(O)C1O (stereo not shown) | IAM chromatography | – | pH 7.4 | – | log kIAM | 2.42
Br.Br.O=c1c(O)cccn1CCN1CCN(CCn2cccc(O)c2=O)CC1 | spectrophotometric titration | – | 25 °C, Ka3, ionic strength 0.10 M | – | log proton dissociation constant | -7.5 ± 0.08
Oc1cccc(-c2cccc(O)n2)n1.[Cl-].[Cl-].[Ru+2].c1cnc2c(c1)c1c(c3cccnc32)OCCO1.c1cnc2c(c1)c1c(c3cccnc32)OCCO1 | – | octanol/buffer | basic form vs acidic form | relative to: acidic form | log D increase | 1.1 log units and ~1.1 log units
COc1cc(OC)cc(C2=C3C(C)=C(I)C(/C=C/c4c[nH]c5ccccc45)=[N+]3[B-](F)(F)n3c(/C=C/c4c[nH]c5ccccc45)c(I)c(C)c32)c1 | – | THF | – | – | log molar absorptivity | 4.62 M⁻¹ cm⁻¹
COC(=O)c1cc(NC(=O)[C@H](CCCCN)NC(=O)c2cc(NC(=O)[C@H](CCCCN)NC(=O)c3cc(NC(=O)[C@H](CCCCN)NC(=O)c4cc(NC(=O)[C@@H](N)CCCCN)ccc4OC)ccc3OC)ccc2OC)ccc1OC | UV-vis λmax shift | TBS | pH 7.4, monomer-hexamer, K in M^-5 | – | log association constant | 17.9
COc1cc2oc(-c3ccccc3)cc(=O)c2c(O)c1O | spectrophotometric titration | methanol/water 80/20 w/w | 25.0 °C, ionic strength 0.1 M, 6-OH group | – | log protonation constant | 9.75
COc1cc(-c2nc3ccccc3s2)cc(CN2CCN(CC(=O)OC(C)(C)C)CCN(CC(=O)OC(C)(C)C)CC2)c1O | – | octanol/water | 64Cu complex | – | log D | 0.95 ± 0.07
Oc1cc2nc(c1)CNCc1cc(O)cc(n1)CNC2 | potentiometric titration | 0.15 M NaCl | 298 K, protonation constant | – | log K1 | 11.3

SMILES | test | system | conditions | scale | endpoint | result
O=c1c(O)cccn1CCCN1CCN(CCCn2cccc(O)c2=O)CC1 | spectrophotometric titration | – | 25 °C, ligand protonation, ionic strength 0.10 M | – | log Ka2 | -5.91 ± 0.09
c1ccc(COc2cc3nc(c2)CNCCNCCNC3)cc1 | pH-potentiometric titration | – | 298 K, I 0.15 M NaCl | – | log K2 minus log K3 | 5.41
CC[P+](c1ccccc1)(c1ccccc1)c1ccccc1 | shake-flask, HPLC | 1-octanol/water | – | – | log P | -1.36 ± 0.09
COc1cc(OC)cc(C2=C3C(C)=C(I)C(C)=[N+]3[B-](F)(F)n3c(/C=C/c4cccs4)c(I)c(C)c32)c1 | – | dichloromethane | – | – | log molar absorptivity | 4.08 M⁻¹ cm⁻¹
CCNC(=O)C1OC(n2cnc3c(NCC(C)C)nc(NCCNC(=O)Nc4cc[n+](C)cc4)nc32)C(O)C1O (stereo not shown) | IAM chromatography | – | pH 7.4 | – | log kIAM | 2.21
CC[C@@H]1CN(CC(=O)[O-])[C@H](CC)CN[C@H](CC)CN(CC(=O)[O-])[C@H](CC)CN1.[Mn+2] | – | 0.1 M KCl | 25 °C | – | log K(MnL) | 17.1
Cc1cc(-c2ccccc2)c2ccc3c(-c4ccccc4)cc(C)nc3c2n1.[Cl-].[Cl-].[Ru+2].c1ccc(-c2ccccn2)nc1.c1ccc(-c2ccccn2)nc1 | – | octanol/water | room temperature, chloride salt | – | log P | -1.57 ± 0.01
Oc1ccc2nc1CNCCNCCNC2 | pH-potentiometric titration | – | protonation constant, I 0.15 M NaCl, 298 K | – | log K4 | 2.17
COC(=O)CCC(=O)[O][Pt-2]1([OH])([Cl])([Cl])[NH2+]CC[N+]1(C)C | RP-HPLC, C18 column | methanol/aqueous formic acid | 25 °C, extrapolated to 100% water | – | log kw | 0.94 ± 0.01
O=C(O)[C@@H]1C[C@@H](O)CN1C(=O)[C@@H]1CCCN1 | potentiometric titration | – | 25 °C, MA3 complex, together with: Fe(III) | – | log beta | 29.5
O=C1c2ccccc2NC(c2ccc([N+](=O)[O-])cc2)N1/N=C/c1ccc([N+](=O)[O-])cc1 (stereo not shown) | RP-HPLC | – | – | – | log k | 0.704
C[S+](C)([O-])[Pt-2]([Cl])([Cl])[N+](=Cc1ccc[nH]1)Cc1ccccc1 | shake-flask | n-octanol/water | – | – | log P | 1.307 ± 0.0082
COC(=O)CCC(=O)[O][Pt-2]1([Cl])([Cl])([O]C)[NH2+]CC[N+]1(C)C | RP-HPLC, C18 column | methanol/aqueous formic acid | 25 °C, extrapolated to 100% water | – | log kw | 1.58 ± 0.02
COc1cc(OC)cc(C2=C3C(C)=C(I)C(C)=[N+]3[B-](F)(F)n3c(/C=C/c4c[nH]c5ccc([N+](=O)[O-])cc45)c(I)c(C)c32)c1 | – | DMSO | – | – | log molar absorptivity | 4.46 M⁻¹ cm⁻¹
COc1ccc(NC(=O)[C@H](CCCCN)NC(=O)c2cc(NC(=O)[C@H](CCCCN)NC(=O)c3cc(NC(=O)[C@H](CCCCN)NC(=O)c4cc(NC(=O)[C@@H](N)CCCCN)ccc4OC)ccc3OC)ccc2OC)cc1C(N)=O | UV-vis λmax shift | Tris 50 mM | pH 7.4, monomer-hexamer global fit, together with: NaCl 0.5 M | – | log association constant | 24.1
COCCOCCOCCOc1ccc(/C=C/c2c(I)c(C)c3n2[B-](F)(F)[N+]2=C(C)C(I)=C(C)C2=C3c2cc(OC)cc(OC)c2)cc1 | – | dichloromethane | – | – | log molar absorptivity | 4.77 M⁻¹ cm⁻¹
C[N+]1(C)CC[NH2+][Pt-2]1([OH])([Cl])([Cl])[O]C(=O)CCC(=O)OCCOC(=O)CCC(=O)[O][Pt-2]1([OH])([Cl])([Cl])[NH2+]CC[N+]1(C)C | RP-HPLC, C18 column | methanol/aqueous formic acid | 25 °C, extrapolated to 100% water | – | log kw | 1.98 ± 0.07
CCOC(=O)c1[nH]c(C)c(/C=C/C2=[N+]3C(=C(c4cc(OC)cc(OC)c4)c4c(C)c(I)c(/C=C/c5c(C)[nH]c(C(=O)OCC)c5C)n4[B-]3(F)F)C(C)=C2I)c1C | – | dichloromethane | – | – | log molar absorptivity | 4.86 M⁻¹ cm⁻¹
COc1ccc(NC(=O)[C@H](CCCCN)NC(=O)c2cc(NC(=O)[C@H](CCCCN)NC(=O)c3cc(NC(=O)[C@H](CCCCN)NC(=O)c4cc(N)ccc4OC)ccc3OC)ccc2OC)cc1C(N)=O | UV-vis λmax shift | TBS | pH 7.4, monomer-hexamer, K in M^-5 | – | log association constant | 21.1
COc1cc(OC)cc(C2=C3C(C)=C(I)C(/C=C/c4c[nH]c5ccc([N+](=O)[O-])cc45)=[N+]3[B-](F)(F)n3c(/C=C/c4c[nH]c5ccc([N+](=O)[O-])cc45)c(I)c(C)c32)c1 | – | DMSO | – | – | log molar absorptivity | 4.87 M⁻¹ cm⁻¹
COc1cc2oc(-c3ccc(C(F)(F)F)cc3F)cc(=O)c2c(O)c1O | spectrophotometric titration | methanol/water 80/20 w/w | 25.0 °C, ionic strength 0.1 M, 6-OH group | – | log protonation constant | 10.2

For quick reference, copied from above:
SMILES | test | system | conditions | scale | endpoint | result
COc1cc(OC)cc(C2=C3C(C)=C(I)C(C)=[N+]3[B-](F)(F)n3c(/C=C/c4c[nH]c5ccccc45)c(I)c(C)c32)c1 | – | dichloromethane | – | – | log molar absorptivity | 4.64 M⁻¹ cm⁻¹
O=C(O)CN(CCNC(=O)c1cccc(C(=O)NCCN(CC(=O)O)CC(=O)O)n1)CC(=O)O | potentiometric titration | water, 0.1 M KNO3 | 25.0 °C, complex species LPb(OH), together with: Pb(NO3)2 | – | log β (Pb2+ complex stability) | 16.7
OCC1OC(n2cnc3c(NCC(c4ccccc4)c4ccccc4)ncnc32)C(O)C1O (stereo not shown) | IAM chromatography | – | pH 7.4 | – | log kIAM | 2.31
NC(=O)CN1CCNC(=O)c2cccc(n2)C(=O)NCCN(CC(N)=O)CCN(CC(N)=O)CC1 | potentiometric titration | – | 25.0 °C, 0.1 M KNO3 ionic strength | – | log β Pb(II) complex LPb(OH)2 | 19.3
FC(F)(F)c1ccnc(-c2cc(C(F)(F)F)ccn2)c1.FC(F)(F)c1ccnc(-c2cc(C(F)(F)F)ccn2)c1.[Cl-].[Cl-].[Ru+2].c1csc(-c2nc3c4cccnc4c4ncccc4c3[nH]2)c1 | shake-flask | 1-octanol/phosphate buffer | pH 7.4, chloride salt | – | log D octanol/water | negative
